Experimental data collected from several papers.
Compare with care: the assays were run in different laboratories. Numbers after ± are the reported error.

Under “deviation from nominal”, `CCCCn1cc(C(=O)c2cccc3ccccc23)c2ccccc21` is recorded as ≤ 15% (blood; 24 h, freeze-thaw and bench-top).
`C[C@@H]1N=C(c2ccccc2F)c2cc(Br)ccc2NC1=O` gave a concentration of 819 nM (male Wistar rat, plasma; intraperitoneal, 2 mg/kg, 20 min).
`C[C@H]1CNCCc2ccc(Cl)cc21` gave an AUC(0-t) of 29 ng·h/mL (male Sprague-Dawley rat, plasma; subcutaneous, 0.5 mg/kg, single dose).
`CN1CCCCC1Cn1cc(C(=O)c2cc([N+](=O)[O-])ccc2I)c2ccccc21` (racemic) has a Papp of 6.2 ×10⁻⁶ cm/s (Caco-2).
With `C[C@]12CC[C@H]3[C@@H](CCC4=CC(=O)CC[C@@]43C)[C@@H]1CC[C@@H]2O` the half-life was 0.425 h (metabolic stability; male beagle dog, liver microsomes; 10 µM, pH 7.4).
`CN1CC[C@@]23CCCC[C@@H]2[C@@H]1Cc1ccc(O)cc13` has an AUC(0-t) of 53.9 ± 11.9 ng·h/mL (Wistar rat, both sexes, plasma; oral, 5 mg/kg DEM, DEM 2 h after pretreatment, together with: QN 2.5 mg/kg single pretreatment).
`C#Cc1ccc2c(c1)C(c1ccccn1)=NCc1c(-c3cnco3)ncn1-2` gave a concentration of 363 nM (Sprague-Dawley rat, brain; intraperitoneal, 10 mg/kg, 4 h, unbound).
With `NC(=O)OC[C@H](N)Cc1ccccc1` the Tmax was 0.5 h (male Swiss mouse, plasma; oral, 10 mg/kg).
`O=C(O)c1nn(Cc2ccc(Cl)cc2Cl)c2ccccc12` gave an EC20 of 660 µM (mitochondrial swelling; BALB/cByJ female mouse liver mitochondria; 30 min, together with: succinate + rotenone; reference: CaCl2 maximal swelling).
`COc1ccc2c(c1)[C@]13CCCC[C@@H]1[C@H](C2)N(C)CC3` — result for “brain 5-HT and 5-HIAA levels”: “no effect” (rat, striatum, hippocampus, cortex; intraperitoneal, 30 mg/kg, three doses, 1 week).
With `Cc1ncc2n1-c1ccc(Cl)cc1C(c1ccccc1F)=NC2` the AUC(0-last) was 0.197 µM·h (healthy human volunteers, plasma; oral, 5 mg single dose, geometric mean, together with: water).
The Tmax of `Cc1ncc2n1-c1ccc(Cl)cc1C(c1ccccc1F)=NC2` is reported as 1.5 h (human CYP3A5*3/*7, serum; oral, together with: ketoconazole 200 mg).
With `CO[C@H]1/C=C/O[C@@]2(C)Oc3c(C)c(O)c4cc(c(/C=N/N5CCN([11CH3])CC5)c(O)c4c3C2=O)NC(=O)/C(C)=C\C=C\C(C)[C@H](O)[C@@H](C)[C@@H](O)[C@@H](C)[C@H](OC(C)=O)[C@@H]1C` (stereo partly drawn) the lung concentration was 6.78 µg/mL (baboon, lung; 10 mg/kg, 90 min).
`CCCCCc1cc(O)c2c(c1)OC(C)(C)[C@@H]1CCC(C)=C[C@@H]21` has an unbound fraction of 0.42 ± 0.04 (recombinant CYP2C9 microsomes; 0.0016 mg/mL protein, no FABP1).
`Cc1ncc2n1-c1ccc(Cl)cc1C(c1ccccc1F)=NC2` has a t1/2 of 0.45 ± 0.08 h (Sprague Dawley rat, plasma; oral, 15 mg/kg, together with: water pre-treatment 7 days).
`Cc1ncc2n1-c1ccc(Cl)cc1C(c1ccccc1F)=NC2`: “AUC(0-inf) arithmetic mean” 118 ng·h/mL (healthy men, plasma; oral, 7.5 mg, without amenamevir).
`CN[C@@](C)(C[18F])C(=O)O` gave a tissue uptake of 0.5 ± 0.1 %ID/g (SCID mouse U87 xenograft, brain; 30 min, post injection).
The MRT(0-t) of `COc1ccc2c(c1)[C@]13CCCC[C@@H]1[C@H](C2)N(C)CC3` is reported as 3.03 ± 1.04 h (Wistar rat, both sexes, plasma; oral, 5 mg/kg, 2 h after pretreatment, together with: single quinidine 2.5 mg/kg).
`Cc1ncc(OC[C@@]2(c3cccc(F)c3)C[C@H]2C(=O)Nc2ccc(F)cn2)c(C)n1` gave a half-life of 118 h (human, plasma; 10 mg, mean, together with: itraconazole 200 mg).
With `CC(NC(C)(C)C)C(=O)c1cccc(Cl)c1` (stereo not drawn) the AUC(0-6 h) was 49.1 ng·h/mL (human, dried blood spots; dose not given, prasugrel alone session).
For `COc1cccc(C2(O)CCCCC2CN(C)C)c1` (stereo not drawn), the EC20 was > 400 µM (cytochrome c release, ELISA; BALB/cByJ female mouse liver mitochondria; 30 min; reference: alamethicin maximal release).
For `COc1ccsc1CNCC[C@@]1(c2ccccn2)CCOC2(CCCC2)C1`, “volume of distribution (Vz)” read 196 L (healthy human, normal renal function, plasma; intravenous, 1 mg single dose, arithmetic mean).
With `CCCCCCCCCCC(=O)O[C@H]1CC[C@H]2[C@@H]3CCC4=CC(=O)CC[C@]4(C)[C@H]3CC[C@]12C` the testosterone change was -1% (human blood; 300 ng/mL, 30 min, 4 °C, NaF 5 mg/mL, K2 oxalate 4 mg/mL; reference: no compound added).
Under “median plasma concentration”, `C=C1C[C@@H]2[C@H](CC[C@]3(C)C(=O)CC[C@@H]23)[C@@]2(C)C=CC(=O)C=C12` is recorded as 5.9 ng/mL (LC-MS/MS; postmenopausal breast cancer women, plasma; oral, 25 mg/day, 2 h, CrCl over 108.5 mL/min).
`N[C@@]1(c2ccccc2Cl)CCC[C@@H](O)C1=O` gave a Cmax of 24700 ng/mL (female CD-1 mice, plasma; intravenous, 50 mg/kg, 10 min, first sampling, not true peak).
With `C#Cc1ccc2c(c1)C(c1ccccc1F)=NCc1c(C(=O)OCC)ncn1-2` the compound remaining was < 20% (metabolic stability; human, liver microsomes; 15 min, pH 7.4).
`COC(=O)c1ncn2c1[C@H](C)N=C(c1ccccc1F)c1cc(Br)ccc1-2` gave a compound remaining of < 5% (metabolic stability; human, liver microsomes; 30 min).

A few entries again:
The Tmax of `Cc1ncc2n1-c1ccc(Cl)cc1C(c1ccccc1F)=NC2` is reported as 1.5 h (human CYP3A5*3/*7, serum; oral, together with: ketoconazole 200 mg).
With `CO[C@H]1/C=C/O[C@@]2(C)Oc3c(C)c(O)c4cc(c(/C=N/N5CCN([11CH3])CC5)c(O)c4c3C2=O)NC(=O)/C(C)=C\C=C\C(C)[C@H](O)[C@@H](C)[C@@H](O)[C@@H](C)[C@H](OC(C)=O)[C@@H]1C` (stereo partly drawn) the lung concentration was 6.78 µg/mL (baboon, lung; 10 mg/kg, 90 min).
`CCCCCc1cc(O)c2c(c1)OC(C)(C)[C@@H]1CCC(C)=C[C@@H]21` has an unbound fraction of 0.42 ± 0.04 (recombinant CYP2C9 microsomes; 0.0016 mg/mL protein, no FABP1).
`Cc1ncc2n1-c1ccc(Cl)cc1C(c1ccccc1F)=NC2` has a t1/2 of 0.45 ± 0.08 h (Sprague Dawley rat, plasma; oral, 15 mg/kg, together with: water pre-treatment 7 days).
